Assay results of several laboratories.
± marks the error that the study gave.
RAD51: DNA repair protein RAD51 homolog 1 (RAD51, Homo sapiens, UniProt Q06609)
DNA dC->dU-editing enzyme APOBEC-3B C-terminal domain: DNA dC->dU-editing enzyme APOBEC-3B, C-terminal domain (Homo sapiens, UniProt Q9UH17)
MAOB: Amine oxidase [flavin-containing] B (MAOB, Homo sapiens, UniProt P27338)
TDP1: Tyrosyl-DNA phosphodiesterase 1 (TDP1, Homo sapiens, UniProt Q9NUW8)

CCCCN(CC)CCCNC(=S)Nc1ccc2nc(N3CCN(C)CC3)cc(C)c2c1 gave a remaining activity of 108 ± 3.1% (RAD51; D-loop formation, inhibitor; 10 x RAD52 pairing IC50, 4% DMSO, together with: 1 mM calcium chloride; reference: DMSO control).
Cc1ccc(C)c(-c2ccc3nc(NC(=O)C4CCCCC4)nn3c2)c1 gave a remaining activity of 102% (Eukaryotic elongation factor 2 kinase (EEF2K, Homo sapiens, UniProt O00418); enzyme activity, Dundee kinase panel; 10 µM).
COC(=O)[C@@]1(C)C=C(C(=O)Nc2cccc(C(=O)Nc3ccc(Nc4nccc(-c5cccnc5)n4)c(C)c3)c2)C(=O)CC1 gave a remaining activity of 0.443 (Mitogen-activated protein kinase 1 (MAPK1, Homo sapiens, UniProt P28482); kinase activity, inhibitor; 133.3 µM, unit not given; reference: no inhibitor).
The remaining activity of COc1ccccc1Nc1nc(NCCCO)c2ccccc2n1 is reported as 89.7 ± 0.4% (RAD51; D-loop formation, inhibitor; 10 x RAD52 pairing IC50, 4% DMSO, together with: 1 mM calcium chloride; reference: DMSO control).
CCC1(O)CCCN(C(=O)c2ccc(-c3ccc(F)c(C(N)=O)c3)cc2)C1 (centres unmarked) has a remaining activity of -8.1% (DNA dC->dU-editing enzyme APOBEC-3B C-terminal domain; deaminase activity, inhibitor; 500 µM).
C[C@](C(=O)NC1CCOCC1)(c1cncnc1)N(C(=O)[C@H](F)Cl)c1ccc(OC(F)(F)Cl)cc1 has a remaining activity of 102% (Cathepsin G (CTSG, Homo sapiens, UniProt P08311); enzyme activity, inhibitor; 10 µM).
For Cc1cnc2nc1Nc1cccc(c1)COC/C=C/COCc1cc(ccc1OCCN1CCOCC1)N2, the remaining activity was 93% (Epidermal growth factor receptor (EGFR, Homo sapiens, UniProt P00533, L861Q); concentration not given; reference: untreated control).
For OCC1CCCN(CCNc2cc(-c3ccccc3)nc3ccnn23)C1 (centres unmarked), the remaining activity was 17.7% (DNA dC->dU-editing enzyme APOBEC-3B C-terminal domain; deaminase activity, inhibitor; 500 µM).
The remaining activity of CC(C)c1ccc(/C=C/C(=O)c2ccc(O)cc2)cc1 is reported as 78.7% (MAOB; enzyme activity, inhibitor; about 2 × IC50, 30 min preincubation, after dialysis).
For O=C(O)c1cc(-c2ccc(CN3CCCC(CO)C3)o2)ccc1Cl (centres unmarked), the remaining activity was 23.8% (DNA dC->dU-editing enzyme APOBEC-3B C-terminal domain; deaminase activity, inhibitor; 500 µM).
Cc1cc(C(=O)Nc2nc3cccc(C)c3n2[C@H]2CCCCN(C(=O)/C=C/CN(C)C)C2)ccn1 has a remaining activity of 111% (CDC2-like kinase 1 (Trypanosoma brucei brucei, UniProt Q382U0); kinase activity, ADP-Glo; 0.01953 µM).
For O=C=[N][Ru-4]123([n]4c5ccc(O)cc5c5c6c(c7cc(F)c[n+]1c7c54)C(=O)NC6=O)[S+]1CC[S+]2CC[S+]3CC1 (centres unmarked), the remaining activity was 113% (Tyrosine-protein kinase Blk (Blk, Mus musculus, UniProt P16277); enzyme activity; 100 nM, mouse enzyme, together with: 10 µM ATP; reference: untreated).
CC(C)c1ccc(/C=C/C(=O)c2ccc(F)cc2)cc1 gave a remaining activity of 41.4% (MAOB; enzyme activity, inhibitor; about 2 × IC50, 30 min preincubation, without dialysis).
With CCC1Sc2ccc(S(=O)(=O)CCC(=O)Nc3cccc4ccccc34)cc2NC1=O (centres unmarked) the remaining activity was 77.8% (P2X purinoceptor 7 (P2rx7, Mus musculus, UniProt Q9Z1M0, A312V); ATP-evoked current, inhibitor, whole-cell patch clamp; HEK293 transfected; 0.1 µM).
O=C(O)c1ccc(Nc2c(-c3ccc(CON=Cc4sccc4-n4cccc4)cc3)nc3cc(-c4ccccc4)ccn23)cc1 (mixture of isomers) gave an inhibition of 13.9% (TDP1; enzyme activity, inhibitor; 100 µM, unpurified compound).
With COc1ccccc1-c1ccncc1C(=O)Nc1nnc(OCc2ccc(Cl)cc2)s1 the remaining activity was 72% (DNA polymerase theta, helicase domain (POLQ, Homo sapiens, UniProt O75417); ATPase activity, ADP-Glo; 0.008 µM, together with: ATP 100 µM).
CC(C)c1ccc(/C=C/C(=O)c2ccc(S(C)(=O)=O)cc2)cc1 gave a remaining activity of 83.3% (MAOB; enzyme activity, inhibitor; 1 µM).
CC(C)[C@@H]1NC(=O)[C@H](Cc2ccccc2)NC(=O)CSC[C@@H](C(N)=O)NC(=O)[C@H](CCC(=O)O)NC(=O)[C@H](CO)NC(=O)[C@H](Cc2c[nH]c3ccccc23)NC(=O)[C@H](C(C)C)NC(=O)[C@H](C(C)C)NC(=O)[C@H](Cc2ccc(O)cc2)NC(=O)[C@H](CC(=O)O)NC(=O)[C@H](Cc2c[nH]c3ccccc23)NC(=O)[C@H](Cc2ccc(O)cc2)NC(=O)[C@H](Cc2c[nH]c3ccccc23)NC(=O)[C@H](CCC(=O)O)NC1=O gave a remaining activity of 88.2% (Interleukin-1 receptor type 1 (IL1R1, Homo sapiens, UniProt P14778); IL-8 release, antagonist; A-431; 100 µM, 18 h, together with: IL-1β 5 ng/mL; reference: untreated).
For COC(=O)[C@@]1(C(C)C)C=C(C(=O)Nc2cccc(C(=O)Nc3ccc(Nc4nccc(-c5cccnc5)n4)c(C)c3)c2)C(=O)CC1, the remaining activity was 0.761 (Mitogen-activated protein kinase 8 (MAPK8, Homo sapiens, UniProt P45983); kinase activity, inhibitor; 0.06097 µM, unit not given, together with: 10 mM glutathione; reference: no inhibitor).
CC(C=NOCc1ccc(-c2nc3cc(-c4ccccc4)ccn3c2Nc2ccc(C(=O)O)cc2)cc1)=Cc1cccc([N+](=O)[O-])c1O (mixture of isomers) has an inhibition of 76.4% (TDP1; enzyme activity, inhibitor; 100 µM, unpurified compound).
For COc1ccc(-c2ccc(C(=O)N(C)CCO)cc2)c(OC)c1, the remaining activity was 27.5% (DNA dC->dU-editing enzyme APOBEC-3B C-terminal domain; deaminase activity, inhibitor; 500 µM).
With COc1ccc(OC)c(Nc2nc(NCCCO)c3ccccc3n2)c1 the remaining activity was 75.6 ± 7.1% (RAD51; D-loop formation, inhibitor; 10 x RAD52 pairing IC50, 4% DMSO, together with: 1 mM calcium chloride; reference: DMSO control).
The remaining activity of CN1CCC[C@@H]1C(=O)N[C@@H](Cc1ccc(-c2ccccc2)cc1)B(O)O is reported as 8 ± 1% (Proteasome component C5/PSMB5 (Homo sapiens, UniProt P20618+P28074); enzyme activity, inhibitor; 1 µM, PA28αβ-activated, HEPES buffer, together with: Ac-WLA-AMC substrate).
The remaining activity of COc1ccc(NC(=O)Nc2ccc3c(c2)C(=O)N(C(C)CO)CC(C)C(CN(C)Cc2ccc4c(c2)OCO4)O3)cc1 (centres unmarked) is reported as 103% (Tyrosine-protein kinase Lyn (Lyn, Mus musculus, UniProt P25911); kinase activity, KinaseProfiler; 0.03 µM, species mouse; reference: control).
NC(=O)COc1cccc(-c2cccc(C(=O)N3CCC4(CCCC4)C3)c2)c1 gave a remaining activity of 16.4% (DNA dC->dU-editing enzyme APOBEC-3B C-terminal domain; deaminase activity, inhibitor; 500 µM).
For CCN(CC)CCNC(=S)Nc1ccc2nc(N3CCN(CC)CC3)cc(C)c2c1, the remaining activity was 95.5 ± 4.3% (RAD51; D-loop formation, inhibitor; 10 x RAD52 pairing IC50, 4% DMSO, together with: 1 mM calcium chloride; reference: DMSO control).
For Nc1ncc(-c2cc(-c3cnn(CC(F)(F)F)c3)ncc2F)nc1C(=O)NC1CNCC(F)C1 (centres unmarked), the remaining activity was 97.6% (Mitogen-activated protein kinase kinase kinase 21 (MAP3K21, Homo sapiens, UniProt Q5TCX8); enzyme activity; 1 µM; reference: DMSO control).
CN1CCN(CCCNC(=O)c2cc3c(-c4ccc(Cl)cc4)nn(C)c3s2)CC1 gave a remaining activity of 38.4 ± 6.4% (RAD51; D-loop formation, inhibitor; 10 x RAD52 pairing IC50, 4% DMSO, together with: 1 mM calcium chloride; reference: DMSO control).
With CC(C)[C@@H]1NC(=O)[C@H](Cc2ccccc2)NC(=O)CSC[C@@H](C(N)=O)NC(=O)[C@H](CCC(=O)O)NC(=O)[C@H](CO)NC(=O)[C@H](Cc2c[nH]c3cccc(Cl)c23)NC(=O)[C@H](C2CCCCC2)NC(=O)[C@H](C(C)C)NC(=O)[C@H](Cc2ccc(O)cc2)NC(=O)[C@H](CC(=O)O)NC(=O)[C@H](Cc2c[nH]c3ccccc23)NC(=O)[C@H](Cc2ccc(N)nc2)NC(=O)[C@H](Cc2c[nH]c3ccc(Cl)cc23)NC(=O)[C@H](CCC(=O)O)NC1=O the remaining activity was 13.2% (Interleukin-1 receptor-like 2 (IL1RL2, Homo sapiens, UniProt Q9HB29); reporter gene (SEAP), inhibitor, HEK-Blue IL-36R reporter; HEK-Blue IL-36R cells; 0.41 µM, 6 h, together with: IL-36β 0.01 ng/mL).
